# Assay results collected from several papers.
# Numbered parts are unrelated; each lists some results of a single study. Changes are numbered by the printed parent chain.

# Sample 1 — target: JDP2, bZIP domain (human); technique: DHFR protein complementation; matrix: yeast; reference: wild-type JUN-FOS pair; direction: higher = stronger binding
# Setting: single substitutions, most at no-binding floor
# Starting sequence: JUN, bZIP domain (human); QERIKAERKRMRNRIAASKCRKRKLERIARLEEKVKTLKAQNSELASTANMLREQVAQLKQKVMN; partner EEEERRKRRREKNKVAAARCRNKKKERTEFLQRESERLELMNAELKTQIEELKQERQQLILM
Change,binding fitness
M51N,0.379 natural log
S47M,0.264 natural log
Q55R,0.216 natural log
T37W,0.267 natural log
Q41G,0.108 natural log
A49R,0.29 natural log
N42H,0.297 natural log
M51K,0.272 natural log
I28E,0.234 natural log
V35N,0.172 natural log
E33F,0.215 natural log
A49E,0.244 natural log
V56T,0.148 natural log
E54G,0.353 natural log
K36L,0.277 natural log
Q41L,0.206 natural log
L52P,-0.97 natural log
A57M,0.18 natural log
L38D,-0.141 natural log
E54R,0.206 natural log
T37Y,0.272 natural log
K34D,0.265 natural log

# Sample 2 — technique: protein binding microarray; molecule type: double-stranded DNA, one strand shown; matrix: in vitro; concentration: not given; reference: not given; direction: higher = stronger binding
# Target: Histone acetyltransferase KAT6A, winged helix 2, GST fusion (KAT6A, Homo sapiens, UniProt Q92794, residues 85-181)
# Setting: 8-mer, flanks averaged, mean of 2 arrays, mostly near background
# Target sequence (chain): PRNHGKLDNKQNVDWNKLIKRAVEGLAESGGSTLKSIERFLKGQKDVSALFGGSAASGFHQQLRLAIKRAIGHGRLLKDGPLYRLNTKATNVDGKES
Strand,E-score
GCTCAAAC,0.154
TCGAACCA,-0.0633
ACAGGACT,-0.126
TGAGTGCA,-0.0414
CATGGCCG,0.087
AATGATTA,0.022
CGAAGTCC,-0.0627
CTCAAGCC,0.0476
GAGTGAAC,-0.124
AAGGCGCT,0.0285
GAATCGTC,-0.0601
GAACCCTC,-0.0538
GAGTCGCC,0.00375
ACTGGTCG,-0.192
GCTAGCGA,0.0569
CGGCGATC,0.292

# Sample 3 — technique: universal PBM; molecule type: double-stranded DNA, one strand shown; matrix: in vitro; concentration: not given; direction: higher = stronger binding
# Target: Sal-like protein 4, full length isoform B (SALL4, Homo sapiens, UniProt Q9UJQ4-2, residues 1-616)
# Setting: 8-mer, flanks averaged, mean of replicates
Strand,E-score
ATTAAACA,0.318
TAGCAGGA,-0.168
CTCTGGAC,-0.116
AATCTGAT,0.102
AGGAAGCC,-0.0978
CAGATGCG,-0.12
CGAACACA,0.0116
CGGGTACC,-0.216
CCTCACTA,-0.0285
ATCGACGG,-0.188
CCGCTTAG,-0.331
GAGGCAGC,-0.204
CAATCAAA,0.0942
AACATGTT,0.268
ACGCTACT,-0.0546
ATTACACG,0.16
AATGTAGG,0.0265
AGCAGTTC,-0.0517
ATAGCGAA,0.35
ATAAGCCC,-0.0385
GCACCTAC,-0.243
CAATATGG,0.18
AAGAATCC,-0.00708
CATGGGTA,-0.157
TCACAAGA,0.0277

# Sample 4 — technique: aptamer microarray, sandwich; molecule type: DNA with 2'F-ANA; matrix: in vitro; concentration: 200 nM; together with: Cy3 exosite-II aptamer, 400 nM; direction: higher = stronger binding; strand: GGTTGGTGTGGTTGG
# Target: Prothrombin, mature alpha-thrombin (F2, Homo sapiens, UniProt P00734)
# Setting: whole 15-mer aptamer, many near background
Modification,mean fluorescence intensity
2'F-ANA at 1 2 5 6 7 9 15,62.2 a.u.
2'F-ANA at 1 2 3 4 6 11 12 13,186 a.u.
2'F-ANA at 1 2 9 12 14,74.3 a.u.
2'F-ANA at 1 4 5 7 10 11 14 15,134 a.u.
2'F-ANA at 4 5 7 8 10 11 12 13 14 15,75 a.u.
2'F-ANA at 2 5 8 9 13 14 15,51.2 a.u.
2'F-ANA at 2 3 7 11 12 14 15,486 a.u.
2'F-ANA at 2 7 10 13 14,88.8 a.u.
2'F-ANA at 1 5 6 9 10 12,46.9 a.u.
2'F-ANA at 2 5 6 8 11 12,118 a.u.
2'F-ANA at 1 3 4 6 7 10 12 14 15,54.7 a.u.
2'F-ANA at 3 4 7 9 12 13,667 a.u.
2'F-ANA at 3 7 8 9 11 12 14,722 a.u.
2'F-ANA at 2 3 5 6 7 8 9 12 14 15,58.3 a.u.
2'F-ANA at 2 5 8 10 11 12 13 14,44.8 a.u.
2'F-ANA at 4 5 6 9 10 11 12 13,46.1 a.u.
2'F-ANA at 1 3 5 8 9 10 13 14,52.1 a.u.
2'F-ANA at 2 3 4 5 9 10 11 12 14,51.4 a.u.
2'F-ANA at 3 9 11 15,990 a.u.

# Sample 5 — technique: RNA Bind-n-Seq; molecule type: RNA; matrix: in vitro; concentration: 365 nM; reference: no-protein control; direction: higher = stronger binding
# Target: RNA binding protein fox-1 homolog 2, RRM domain, GST-SBP tag (RBFOX2, Homo sapiens, UniProt O43251-10, residues 100-194)
# Setting: natural RNA segment, single round, ends assumed
# Shared flanks, not repeated: GGGAGUUCUACAGUCCGACGAUC … UGGAAUUCUCGGGUGCCAA
# Construct (chain): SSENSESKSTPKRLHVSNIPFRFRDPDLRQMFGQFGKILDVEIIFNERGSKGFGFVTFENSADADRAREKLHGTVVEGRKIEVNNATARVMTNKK
Strand,RBNS enrichment (R)
GGUGCCACCAGCACCCGUGCCUCCGAAGACCGCUCGGGCAUUCCGCCUGCGCCCUGGGACAGCGGAGAGACGGCUUCUCUUUAAUCUAGGUCCCAUUGUGUCUUGAGGGA,0.487
AUGAGUCACUUCCUGAACCCAUUGACCAAAGGUGGACAGAGACAAUCCUGUAGACCUUGACAUUCAGAAAGAUGUGAGCUGCUUACUGAUCAUAUAUGCAUACGUUUCUU,0.603
GUUCUCUGGGACUUUGUAAUUUUGAUUACUACUAUUGAUACAUGGUUAUGGUCAGAAGGCCUCUUCUCCCUUCCUCCCUCACUCCCUCUCCUCCUAGCUUUCCCCACAGA,0.824
AACACUGAACUUAUCAGAAAAAUGUAUAUAUAGGCAAGGAAAGAAAUACAGUACUGUUUCUGGACCCUUAUAAAAUCCUGUGCAAUAGACACAUACAUGUCACAUUUAGC,0.375
UAUUUUCGGAGCCAGUGAUGCUCUUUAAAGGAGUUAUUUCUUCCAAAGAAGCAAGACGAGCCAGGUUACUGACAUAAUCUUUAUGACAUGUGUACUGCAGUUGUGCCUUU,0.239
CCAAAGCCGCCUUAGUGAAGAGCAGUAUGUUCUGAUCUGCGAUCUGCGGCGGCGGCGGGCGAGCCCGGGGCCCGGGCUGGCGAGUGGGCGAGUGGGUAGACCCAAGGCUA,0.292
AUCCCAAGGCAAUACUUCCAGACUAAGGUGGCCAUCCAGCAUUCCUUUGAGUCCUCCAAGAAAGAUGAUACUUGGUUCAUUUCAAAAAACCAAAUGCAGACAAAUGGGAG,0.271
CGACUCCCCACCCUUUUGCAUUCUGGGAGCCCACAUCUAUUUUUUACACCCCCCCCCACAAGAGGGGUGGAGUUUCUUCCCAACCCAAAUCUGGAGAGGUCAGAAUGGAA,0.269
GUUGUUGUUUUGUUUUGUUUUUUGUUUUGCUUUUGCGGUAACUGCACCACUAUGAAACAUUGACUUGCUAUUUCAAAUUCCUGGAUUCUAAGGAAUUUCUCAUCUGACAA,0.597
UGGUCCUUCCUGUUCUCCACCCUGGUUUCUUAAGUAGUUGGUUCUUCUCCUUAGUCUUCCUGACUCAACCCGUGGUCUCUGUCCCGCUCCCCCUCUCUGUGGCAGUUUCA,0.602
UGAAAGCCUUAGUUCCCACAGAGGACGGAUCUGUCACUCCUAGGGGCUGGGCAUAUGUCGGCCUCUUGUGCCAAGGCCAGGCAAGCAGCUCCAGGUCCUGACCAGUUUGC,0.343
GGCCUGCUGAUAAGAUACCUGCUGGUGAGCCCUGAUGUGGGACAUACGUGCAGAUAGGGGGCAGGGUUCGUUUACAGUGCCAGCAAGCAUGGAGUUGUCAGUAUUGGAGU,27.3

# Sample 6 — technique: protein-binding microarray; molecule type: double-stranded DNA, one strand shown; matrix: in vitro; concentration: 250 nM; setting: 60-bp whole probe; together with: salmon DNA 0.4 mg/ml; reference: random background probes; direction: higher = stronger binding; shared flanks, not repeated: GCCTAGCAC … GTCTTGATTCGCTTGACGCTGCTG
# Target: Interferon regulatory factor 5, full length, phosphomimetic (IRF5, Homo sapiens, UniProt Q13568-2, residues 1-514, K96S/S451D/S453D/S456D/S462D)
Strand,log fluorescence [z-score]
GACGGTTTCAGTTTCGGGACGTGCTAG,7.92
GACGATCTCAGTATCTAGACGTGCTAG,0.0373
TTAGATATCATACTGGATTAGTGCTAG,0.635
TTACGTTTCCTTTTCCTTTAGTGCTAG,2.54
AGCCGAACAGCAATCGGATGGTGCTAG,-0.332
TCATACTTCACTCTCTGACTGTGCTAG,0.545
GACGGACTGGGGCTCGGGACGTGCTAG,-0.562
GGTCCTCTGGGCTGTTTGGCCGTGCTA,-0.913
TTAGATTTCAGTTTAGATTAGTGCTAG,2.73
TTAGGTATCCATCTCCTTTAGTGCTAG,0.183
TAACTAATATTAAATATGTAGTGCTAG,0.581
AACGGACTGGGGACTGGGGACGTGCTA,-0.254
TTAGATTTCCGGTTTCGATTAGTGCTA,8.4
CTAGTTTCCATTTTCAGAATGTGCTAG,2.91
ACTGCATTCCCTTTCTCAACGTGCTAG,0.519
GACGGCTTCGGTTTCGGGACGTGCTAG,3.73
TTAGGTTTCCTACAGCTTTAGTGCTAG,0.0935
TTAGATCTCAGTTTCGCTTAGTGCTAG,7.05
TTAGAAATGAGTTTCGATTAGTGCTAG,9.65

# Some of these lines once more (sample 4):
Modification,mean fluorescence intensity
2'F-ANA at 1 2 5 6 7 9 15,62.2 a.u.
2'F-ANA at 1 2 3 4 6 11 12 13,186 a.u.
2'F-ANA at 1 2 9 12 14,74.3 a.u.
2'F-ANA at 1 4 5 7 10 11 14 15,134 a.u.
2'F-ANA at 4 5 7 8 10 11 12 13 14 15,75 a.u.
2'F-ANA at 2 5 8 9 13 14 15,51.2 a.u.
2'F-ANA at 2 3 7 11 12 14 15,486 a.u.
2'F-ANA at 2 7 10 13 14,88.8 a.u.
2'F-ANA at 1 5 6 9 10 12,46.9 a.u.
2'F-ANA at 2 5 6 8 11 12,118 a.u.
2'F-ANA at 1 3 4 6 7 10 12 14 15,54.7 a.u.
2'F-ANA at 3 4 7 9 12 13,667 a.u.
2'F-ANA at 3 7 8 9 11 12 14,722 a.u.
2'F-ANA at 2 3 5 6 7 8 9 12 14 15,58.3 a.u.
2'F-ANA at 2 5 8 10 11 12 13 14,44.8 a.u.
2'F-ANA at 4 5 6 9 10 11 12 13,46.1 a.u.
2'F-ANA at 1 3 5 8 9 10 13 14,52.1 a.u.
2'F-ANA at 2 3 4 5 9 10 11 12 14,51.4 a.u.
